Experimental data pooled from the literature.
Lines come from different studies, so protocols differ. Several values in a cell are separate wells, animals, samples, runs or records. ± marks the error that the study gave.

Structure (SMILES) | test | system | conditions | how to read | endpoint | value
CN[C@H](CC(C)C)C(=O)N[C@H]1C(=O)N[C@@H](CC(N)=O)C(=O)N[C@H]2C(=O)N[C@H]3C(=O)N[C@H](C(=O)N[C@H](C(=O)O)c4cc(O)cc(O)c4-c4cc3ccc4O)[C@H](O)c3ccc(c(Cl)c3)Oc3cc2cc(c3O[C@@H]2O[C@H](CO)[C@@H](O)[C@H](O)[C@H]2O[C@H]2C[C@](C)(NCc3ccc(-c4ccc(Cl)cc4)cc3)[C@H](O)[C@H](C)O2)Oc2ccc(cc2Cl)[C@H]1O |  | mouse, plasma | intravenous, 75 mg/kg |  | AUC | 575 µg·h/mL
CSCC[C@H](NC(=O)[C@H](CC(C)C)NC(=O)[C@H](CCC(N)=O)NC(=O)[C@H](C)NC(=O)[C@H](Cc1c[nH]c2ccccc12)NC(=O)[C@H](Cc1ccc(O)cc1)NC(=O)[C@H](CCC(=O)O)NC(=O)[C@H](CC(C)C)NC(=O)[C@H](Cc1ccccc1)NC(=O)[C@@H](NC(=O)[C@H](CC(C)C)NC(=O)[C@H](CCCCN)NC(C)=O)[C@@H](C)O)C(=O)N[C@@H](CCC(N)=O)C(=O)N[C@@H](CCCCN)C(=O)NCCCCCC(=O)N[C@@H](CCCCN)C(=O)N[C@@H](CC(C)C)C(=O)N[C@H](C(=O)N[C@@H](Cc1ccccc1)C(=O)N[C@@H](CC(C)C)C(=O)N[C@@]1(C)CCCC=CCCC[C@@](C)(C(=O)N[C@@H](CC(C)C)C(=O)N[C@@H](CCSC)C(=O)N[C@@H](CCC(N)=O)C(=O)N[C@@H](CCCCN)C(N)=O)NC(=O)[C@H](C)NC(=O)[C@H](Cc2c[nH]c3ccccc23)NC(=O)[C@H](Cc2ccc(O)cc2)NC1=O)[C@@H](C)O | circular dichroism | phosphate buffer | pH 7.2, room temperature |  | helical content | 73.6%
CC(C)[C@@H]1NC(=O)CNC(=O)[C@H](CC(N)=O)NC(=O)[C@H](CCCNC(=N)N)NC(=O)[C@H](Cc2ccc(O)cc2)NC(=O)[C@H](C(C)C)NC(=O)[C@@H](NC(=O)[C@@H](NC(=O)[C@H](CC(N)=O)NC(=O)[C@H](Cc2c[nH]c3ccccc23)NC(=O)[C@H](C)NC(=O)[C@H](Cc2ccccc2)NC(=O)CNC(=O)[C@H](CCCCN)NC(=O)[C@H](Cc2ccccc2)NC(=O)[C@H](Cc2ccccc2)NC(=O)[C@H](CCCCN)NC(=O)OCC2c3ccccc3-c3ccccc32)C(C)C)CSSC[C@@H](C(=O)N[C@@H](Cc2c[nH]cn2)C(=O)N[C@@H](CCCNC(=N)N)C(=O)N[C@@H](CCCNC(=N)N)C(=O)N[C@@H](C)C(=O)N[C@@H](CC(N)=O)C(N)=O)NC(=O)[C@H](C(C)C)NC(=O)[C@H](CCCNC(=N)N)NC1=O |  | ICR mice, blood | intraperitoneal, 10 mg/kg, day 5 |  | basophils | 1.69 ± 0.29%
CC[C@H](C)[C@H](NC(=O)[C@H](Cc1ccc(O)cc1)NC(=O)[C@@H](NC(=O)[C@H](CCCNC(=N)N)NC(=O)[C@@H](N)CC(=O)O)C(C)C)C(=O)N[C@@H](Cc1c[nH]cn1)C(=O)N1CCC[C@H]1C(=O)O |  | Sprague-Dawley rat | sc, 10 mg/kg once daily, 28 days |  | tolerability | not toxic
CCn1ccc(-c2cc(-c3cnn(C)c3)cc([C@@H](C)NC(=O)c3cc(OCCN(C)C)ccc3C)c2)n1 |  | C57BL/6J mice, male, plasma | oral, 50 mg/kg |  | AUC(0-inf) | 22.8 µg·h/mL
O=C1NC2(CC2)COc2ncc(F)cc2[C@H]2COCCN2c2ccn3ncc1c3n2 |  | Sprague-Dawley rat, male, serum | oral, 20 mg/kg/day, 4 weeks daily, end of treatment |  | albumin | 31.4 ± 3.2 g/L
C=Cc1c(C)c2cc3nc(c(CC(=O)[O-])c4[n-]c(cc5nc(cc1[n-]2)C(C)=C5CC)c(C)c4C(=O)[O-])C(CCC(=O)[O-])C3C.[Cu+2].[Na+].[Na+].[Na+] (stereo not drawn) |  | BALB/c mouse | oral, 5000 mg/kg, acute toxicity | baseline: untreated | body weight | no effect
CC(C)C[C@H](NC(=O)[C@H](Cc1ccc(O)cc1)NC(=O)[C@H](C)NC(=O)[C@H](CC(N)=O)NC(=O)[C@H](CC(C)C)NC(=O)[C@H](C)NC(=O)[C@@H](NC(=O)[C@H](CCCCN)NC(=O)CNC(=O)[C@@H](NC(=O)[C@H](CCCCN)NC(=O)[C@H](CCCCN)NC(=O)CNC(=O)[C@@H](NC(=O)[C@H](Cc1c[nH]cn1)NC(=O)[C@@H](NC(=O)[C@H](C)NC(=O)[C@H](CCCCN)NC(=O)[C@H](CCCCN)NC(=O)[C@H](Cc1ccccc1)NC(=O)[C@H](Cc1c[nH]c2ccccc12)NC(=O)[C@H](CCCCN)NC(=O)[C@H](CCCCN)NC(=O)[C@H](CC(C)C)NC(=O)CN)C(C)C)C(C)C)C(C)C)C(C)C)C(N)=O |  | zebrafish embryos 4 hpf, E3 medium | 24 h |  | chronic toxic concentration | 5 µM
CSCC[C@H](N)C(=O)N[C@@H](C)C(=O)N[C@@H](CCCNC(=N)N)C(=O)N[C@@H](CCCNC(=N)N)C(=O)N[C@@H](CC(=O)O)C(=O)N[C@@H](CCCCN)C(=O)N[C@H](C(=O)N[C@@H](CC(=O)O)C(=O)N[C@@H](Cc1ccccc1)C(=O)N[C@@H](C)C(=O)N[C@@H](CCCNC(=N)N)C(=O)N[C@@H](CCCNC(=N)N)C(=O)N[C@@H](CCCNC(=N)N)C(=O)N[C@@H](CCCNC(=N)N)C(=O)NCCCCCC(=O)NCCCCC(NC(=O)CCCCCNC(=O)[C@H](CCCNC(=N)N)NC(=O)[C@H](CCCNC(=N)N)NC(=O)[C@H](CCCNC(=N)N)NC(=O)[C@H](CCCNC(=N)N)NC(=O)[C@H](C)NC(=O)[C@H](Cc1ccccc1)NC(=O)[C@H](CC(=O)O)NC(=O)[C@@H](NC(=O)[C@H](CCCCN)NC(=O)[C@H](CC(=O)O)NC(=O)[C@H](CCCNC(=N)N)NC(=O)[C@H](CCCNC(=N)N)NC(=O)[C@H](C)NC(=O)[C@@H](N)CCSC)[C@@H](C)O)C(=O)NCCCCC(NC(=O)C(CCCCNC(=O)CCCCCNC(=O)[C@H](CCCNC(=N)N)NC(=O)[C@H](CCCNC(=N)N)NC(=O)[C@H](CCCNC(=N)N)NC(=O)[C@H](CCCNC(=N)N)NC(=O)[C@H](C)NC(=O)[C@H](Cc1ccccc1)NC(=O)[C@H](CC(=O)O)NC(=O)[C@@H](NC(=O)[C@H](CCCCN)NC(=O)[C@H](CC(=O)O)NC(=O)[C@H](CCCNC(=N)N)NC(=O)[C@H](CCCNC(=N)N)NC(=O)[C@H](C)NC(=O)[C@@H](N)CCSC)[C@@H](C)O)NC(=O)CCCCCNC(=O)[C@H](CCCNC(=N)N)NC(=O)[C@H](CCCNC(=N)N)NC(=O)[C@H](CCCNC(=N)N)NC(=O)[C@H](CCCNC(=N)N)NC(=O)[C@H](C)NC(=O)[C@H](Cc1ccccc1)NC(=O)[C@H](CC(=O)O)NC(=O)[C@@H](NC(=O)[C@H](CCCCN)NC(=O)[C@H](CC(=O)O)NC(=O)[C@H](CCCNC(=N)N)NC(=O)[C@H](CCCNC(=N)N)NC(=O)[C@H](C)NC(=O)[C@@H](N)CCSC)[C@@H](C)O)C(N)=O)[C@@H](C)O (stereo partly drawn) |  | C57BL/6 mouse female, pancreas | dose not given, 3 h | baseline: total | tissue distribution | 0.6% and 1.46% and 1.39%
CC(C)C[C@@H](NC(=O)[C@@H](CCCNC(=N)N)NC(=O)[C@@H](Cc1c[nH]cn1)NC(=O)[C@@H](Cc1c[nH]c2ccccc12)NC(=O)[C@@H](Cc1c[nH]cn1)NC(=O)[C@@H](Cc1ccccc1)NC(=O)[C@H](NC(=O)[C@@H](Cc1ccc(O)cc1)NC(=O)CNC(=O)CNC(=O)CCOCCOCCOCCNC(=O)CN1CCN(CC(=O)O)CCN(CC(=O)O)CC1)[C@H](C)O)C(=O)N[C@H](CC(N)=O)C(=O)N1CCC[C@@H]1C(=O)O [gallium-68 labelled] |  | male C57BL/6 mice | intravenous, 1.85 MBq, 60 min, with: antibody blocking | baseline: tumour over liver | tumour-to-tissue ratio | 4.23 ± 0.92
CC(C)=CCC/C(C)=C\CCn1cc(CC(C)(P(=O)(O)O)P(=O)(O)O)nn1 |  | CD-1 mice, pooled bile | intravenous, 0.3 mg/kg, 24 h |  | bile concentration | 172 ng/mL
COc1ccc(CNc2ccc3c(c2)S(=O)(=O)C=C3)cc1 | flow cytometry | male C57BL/6 mice, spleen | i.p., 5 mg/kg, 8 days | baseline: CD45+ cells | CD4+ cells | 16.2%

Repeated from above:
Structure (SMILES) | test | system | conditions | how to read | endpoint | value
CC(C)[C@@H]1NC(=O)CNC(=O)[C@H](CC(N)=O)NC(=O)[C@H](CCCNC(=N)N)NC(=O)[C@H](Cc2ccc(O)cc2)NC(=O)[C@H](C(C)C)NC(=O)[C@@H](NC(=O)[C@@H](NC(=O)[C@H](CC(N)=O)NC(=O)[C@H](Cc2c[nH]c3ccccc23)NC(=O)[C@H](C)NC(=O)[C@H](Cc2ccccc2)NC(=O)CNC(=O)[C@H](CCCCN)NC(=O)[C@H](Cc2ccccc2)NC(=O)[C@H](Cc2ccccc2)NC(=O)[C@H](CCCCN)NC(=O)OCC2c3ccccc3-c3ccccc32)C(C)C)CSSC[C@@H](C(=O)N[C@@H](Cc2c[nH]cn2)C(=O)N[C@@H](CCCNC(=N)N)C(=O)N[C@@H](CCCNC(=N)N)C(=O)N[C@@H](C)C(=O)N[C@@H](CC(N)=O)C(N)=O)NC(=O)[C@H](C(C)C)NC(=O)[C@H](CCCNC(=N)N)NC1=O |  | ICR mice, blood | intraperitoneal, 10 mg/kg, day 5 |  | basophils | 1.69 ± 0.29%
